Results collected from several papers.
Every numbered part comes from another study and shows a few of its results, in no order.

Study 1
Target: Histone acetyltransferase KAT6A, winged helix 1, GST fusion (KAT6A, Homo sapiens, UniProt Q92794, residues 1-85)
Method: protein binding microarray
Molecule type: double-stranded DNA, one strand shown
Medium: in vitro
Concentration: not given
Setting: 8-mer, flanks averaged, mean of 2 arrays, mostly near background
Relative to: not given
Reading: higher = stronger binding
Endpoint: E-score
Construct (chain): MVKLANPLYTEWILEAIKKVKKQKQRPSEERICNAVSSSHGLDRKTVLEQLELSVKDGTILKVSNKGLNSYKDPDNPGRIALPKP
CGCCGCGA: 0.432
GGGATCCA: 0.123
ATCGTATC: -0.157
CTGGTCCC: -0.176
CTATTCGA: -0.292

Study 2
Target: Sal-like protein 4, full length isoform B (SALL4, Homo sapiens, UniProt Q9UJQ4-2, residues 1-616)
Method: universal PBM
Molecule type: double-stranded DNA, one strand shown
Medium: in vitro
Concentration: not given
Setting: 8-mer, flanks averaged, mean of replicates
Reading: higher = stronger binding
Endpoint: E-score
AGTTTCTC: -0.0729
CGAACTTA: -0.0717
GTCGGAAC: -0.208
ATTACCAC: 0.171
CTCGGATA: 0.0103
GAGAAATA: 0.226
TGATGGAA: 0.129

Study 3
Target: RING finger protein unkempt homolog, zinc fingers 1-6, GST-SBP tag (UNK, Homo sapiens, UniProt Q9C0B0, residues 30-357)
Sequence of UniProt Q9C0B0 (30-357, looked up): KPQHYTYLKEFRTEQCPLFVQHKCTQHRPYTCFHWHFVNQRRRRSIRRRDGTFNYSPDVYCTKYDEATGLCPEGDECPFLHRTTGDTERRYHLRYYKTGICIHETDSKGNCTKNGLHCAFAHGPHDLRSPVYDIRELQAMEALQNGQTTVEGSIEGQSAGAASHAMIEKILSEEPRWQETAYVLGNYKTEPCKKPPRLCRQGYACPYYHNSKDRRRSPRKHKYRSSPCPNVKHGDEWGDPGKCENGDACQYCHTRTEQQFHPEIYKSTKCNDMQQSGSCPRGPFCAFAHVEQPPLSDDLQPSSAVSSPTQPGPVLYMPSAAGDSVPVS
Method: RNA Bind-n-Seq
Molecule type: RNA
Medium: in vitro
Concentration: not given
Setting: RNA with constant flanks, human-mouse chimeric sites, ends assumed
Relative to: input RNA pool
Reading: higher = stronger binding
Endpoint: bound/input enrichment
GGGAGUUCUACAGUCCGACGAUCCUGAGGAUACCACUGAAAGAGACAUUAAAGGAGUCAUUGAGGGCUCUGUUCGUGCAAGAAUAGUCACUGAUCGGGAAACUGGUUCUUCCAAAGGGUUUGGUUUUGUAGACUUUAAUAGUGCAACAGAGGAUUGAGCAUCA: 0.977 ratio
GGGAGUUCUACAGUCCGACGAUCUUUGUUUUUGUAACUUAUGUAAAAGGUUCCCCCCCCCUACUGUCAAAAAAUAUGCAUGUAUAGUAAUUAGGACUUCAUUCCUCCAUGUUUUCUUCCCUUAUCUUACUGUCAUUGUCCUUACAACAGAGGAUUGAGCAUCA: 2.65 ratio
GGGAGUUCUACAGUCCGACGAUCGAUCCACAGUGGUCUGAGGAGCAACUCAUUGCUGCAAAAUUCUGUUUUGCUGGCCUUGUUAUAGGGCAGACUGAAGUGGACAUCAUGAGUCAUGCCACACAGGCUAUAUUUGAAAUACUGCAACAGAGGAUUGAGCAUCA: 0.15 ratio

Further values, each from its own experiment
PhoQ, residues 284 288 289 292 302 303 SSLVEF  fold induction (PhoP, residues 12 14 15 18 19 SEGLL (Escherichia coli, UniProt P23836); Sort-seq, item: YFP reporter; E. coli; PhoQ-PhoP variant library, with: 10 µM Mg2+; relative to: high Mg2+ state, higher = stronger signaling): 7.5

Repeated from above (study 3):
GGGAGUUCUACAGUCCGACGAUCGAUCCACAGUGGUCUGAGGAGCAACUCAUUGCUGCAAAAUUCUGUUUUGCUGGCCUUGUUAUAGGGCAGACUGAAGUGGACAUCAUGAGUCAUGCCACACAGGCUAUAUUUGAAAUACUGCAACAGAGGAUUGAGCAUCA: 0.15 ratio
